Measured values pooled from the literature.
Each line is one published result; not all experiments were run side by side. Values joined by “and” are separate records of one study, mostly repeats; a detail may differ. ± gives the spread as reported.

| SMILES | assay | system | conditions | how to read | quantity | result |
| --- | --- | --- | --- | --- | --- | --- |
| CCN(CC)CCOc1ccc(-c2nnn(Cc3ccc(OC)cc3)c2N)cc1 |  | beagle dog | oral, at least 40 mg/kg |  | diastolic blood pressure increase | ≤ 14% |
| C=Cc1c(C)c2cc3nc(c(CC(=O)[O-])c4[n-]c(cc5nc(cc1[n-]2)C(C)=C5CC)c(C)c4C(=O)[O-])C(CCC(=O)[O-])C3C.[Cu+2].[Na+].[Na+].[Na+] (stereo not shown) |  | Wistar rat, male | oral, 500 mg/kg daily, 28 days |  | serum creatinine | 0.32 ± 0.04 mg/dL |
| CCCCC[C@@H]1OC(=O)[C@@H](C)N(C)C(=O)[C@H](CCCCC)N(C)C(=O)[C@@H](C)N(C)C(=O)[C@H](CCCCC)N(C)C(=O)[C@@H](C)N(C)C(=O)[C@H](CCCCC)N(C)C(=O)[C@@H](C)N(C)C1=O | PAMPA, HPLC-UV |  | 500 µM, pH 7.4 |  | log Papp | -5.42 ± 0.04 |
| O=C1NC2(CC2)COc2ncc(F)cc2[C@H]2COCCN2c2ccn3ncc1c3n2 |  | Sprague-Dawley rat, female, blood | oral, 10 mg/kg/day, 4 weeks, end of recovery, subacute toxicity |  | mean corpuscular haemoglobin | 18.4 ± 0.7 pg |
| CC[C@H](C)[C@H](NC(=O)[C@H](C)NC(=O)[C@H](CCCCN)NC(=O)[C@H](CCCCN)NC(=O)[C@@H](N)CCCNC(=N)N)C(=O)N[C@@H](CCCCN)C(=O)N[C@@H](CC(C)C)C(=O)N[C@H](C(=O)N[C@@H](CCCCN)C(=O)N[C@@H](CCCCN)C(=O)N[C@@H](CC(C)C)C(=O)N[C@H](C(=O)N[C@@H](CCCCN)C(=O)N[C@@H](CCCCN)C(=O)N[C@@H](CC(C)C)C(=O)N[C@@H](CCCCN)C(=O)N[C@@H](CCCCN)C(=O)N[C@@H](C)C(=O)N[C@@H](CC(C)C)C(=O)N[C@@H](CCCCN)C(=O)O)C(C)C)C(C)C |  | human red blood cells | 8 mg/L, 1 h, mean of replicates |  | hemolysis | 1.68% |
| CC[C@H](C)[C@H](NC(=O)[C@H](CCCCN)NC(=O)CNC(=O)[C@H](CC(C)C)NC(=O)[C@H](Cc1ccccc1)NC(=O)[C@H](CCCCN)NC(=O)[C@H](CO)NC(=O)[C@H](Cc1ccccc1)NC(=O)[C@H](Cc1c[nH]c2ccccc12)NC(=O)[C@H](CCC(N)=O)NC(=O)[C@@H](NC(=O)[C@H](Cc1ccccc1)NC(=O)CCCCCNC(=O)CN1CCN(CC(=O)O)CCN(CC(=O)O)CCN(CC(=O)O)CC1)C(C)C)C(=O)N[C@@H](CCC(=O)O)C(=O)N1CCC[C@H]1C(=O)N[C@@H](CC(=O)O)C(=O)N[C@H](C(=O)N[C@@H](CO)C(=O)N[C@@H](CCC(N)=O)C(=O)N[C@H](C(=O)N[C@@H](CCC(N)=O)C(=O)N[C@@H](CC(=O)O)C(=O)N1CCC[C@H]1C(=O)N[C@@H](CC(N)=O)C(=O)N[C@@H](CC(=O)O)C(=O)N[C@@H](CCC(N)=O)C(=O)N[C@@H](Cc1ccc(O)cc1)C(=O)N[C@@H](CCC(=O)O)C(=O)N1CCC[C@H]1C(=O)N[C@@H](Cc1ccccc1)C(=O)O)C(C)C)C(C)C [copper-64 labelled] | dynamic PET | mouse both sexes, CT26 tumour, checkpoint inhibitor-treated, tumour | intravenous, 100 µCi/mouse, 1050 s |  | SUVmean | 3.46 SUV |
| C(#Cc1cncc(OC[C@@H]2CCN2)c1)c1ccccc1 |  | male Sprague-Dawley rat, plasma | oral, 75 mg/kg, 24 h |  | concentration | 0.06 µg/mL |
| Cc1cc(C)n(-c2nc(-c3ccccc3)cc(=O)n2CC(=O)Nc2cccc([N+](=O)[O-])c2)n1 |  | human liver microsomes | pH 7.4, with: NADPH |  | CLint | 25.2 ± 0.6 µL/min/mg |
| CCOc1ccccc1-n1c(CN2CCNCC2)nc2ccccc2c1=O |  | C57BL/6 mouse, male, plasma | intraperitoneal, 3 mg/kg |  | half-life | 2.11 h |
| CCCC[C@H]1C(=O)N(C)[C@@H](CCCC)C(=O)N[C@@H](CCCNC(=O)CN2CCN(CC(=O)O)CCN(CC(=O)O)CCN(CC(=O)O)CC2)C(=O)N[C@H](C(=O)NCC(N)=O)CSCC(=O)N[C@@H](Cc2ccc(O)cc2)C(=O)N(C)[C@@H](C)C(=O)N[C@@H](CC(N)=O)C(=O)N2CCC[C@H]2C(=O)N[C@@H](Cc2c[nH]cn2)C(=O)N[C@@H](CC(C)C)C(=O)N(C)CC(=O)N[C@@H](Cc2c[nH]c3ccccc23)C(=O)N[C@@H](CO)C(=O)N[C@@H](Cc2c[nH]c3ccccc23)C(=O)N1C [gallium-68 labelled] |  | NOD/SCID mice with CHO-hPD-L1 xenograft, pancreas | 60 min post injection |  | tissue uptake | 4.97 ± 2.26 %ID/g |
| CSCC[C@H](N)C(=O)N[C@@H](C)C(=O)N[C@@H](Cc1c[nH]c2ccccc12)C(=O)N[C@@H](Cc1c[nH]cn1)C(=O)N[C@@H](CC(=O)O)C(=O)N[C@@H](CC(=O)O)C(=O)N[C@@H](CCC(=O)O)C(=O)N[C@@H](CCC(=O)O)C(=O)N[C@@H](Cc1ccccc1)C(=O)N[C@@H](C)C(=O)N[C@@H](CCCNC(=N)N)C(=O)N[C@@H](CCCNC(=N)N)C(=O)N[C@@H](CCCNC(=N)N)C(=O)N[C@@H](CCCNC(=N)N)C(=O)NCCCCCC(=O)NCCCCC(NC(=O)CCCCCNC(=O)[C@H](CCCNC(=N)N)NC(=O)[C@H](CCCNC(=N)N)NC(=O)[C@H](CCCNC(=N)N)NC(=O)[C@H](CCCNC(=N)N)NC(=O)[C@H](C)NC(=O)[C@H](Cc1ccccc1)NC(=O)[C@H](CCC(=O)O)NC(=O)[C@H](CCC(=O)O)NC(=O)[C@H](CC(=O)O)NC(=O)[C@H](CC(=O)O)NC(=O)[C@H](Cc1c[nH]cn1)NC(=O)[C@H](Cc1c[nH]c2ccccc12)NC(=O)[C@H](C)NC(=O)[C@@H](N)CCSC)C(=O)NCCCCC(NC(=O)C(CCCCNC(=O)CCCCCNC(=O)[C@H](CCCNC(=N)N)NC(=O)[C@H](CCCNC(=N)N)NC(=O)[C@H](CCCNC(=N)N)NC(=O)[C@H](CCCNC(=N)N)NC(=O)[C@H](C)NC(=O)[C@H](Cc1ccccc1)NC(=O)[C@H](CCC(=O)O)NC(=O)[C@H](CCC(=O)O)NC(=O)[C@H](CC(=O)O)NC(=O)[C@H](CC(=O)O)NC(=O)[C@H](Cc1c[nH]cn1)NC(=O)[C@H](Cc1c[nH]c2ccccc12)NC(=O)[C@H](C)NC(=O)[C@@H](N)CCSC)NC(=O)CCCCCNC(=O)[C@H](CCCNC(=N)N)NC(=O)[C@H](CCCNC(=N)N)NC(=O)[C@H](CCCNC(=N)N)NC(=O)[C@H](CCCNC(=N)N)NC(=O)[C@H](C)NC(=O)[C@H](Cc1ccccc1)NC(=O)[C@H](CCC(=O)O)NC(=O)[C@H](CCC(=O)O)NC(=O)[C@H](CC(=O)O)NC(=O)[C@H](CC(=O)O)NC(=O)[C@H](Cc1c[nH]cn1)NC(=O)[C@H](Cc1c[nH]c2ccccc12)NC(=O)[C@H](C)NC(=O)[C@@H](N)CCSC)C(N)=O (stereo partly shown) |  | C57BL/6 mouse female, lungs | dose not given, 6 h | reference: total | tissue distribution | 1.47% and 1.67% and 1.78% |
| N=C(N)NCCC[C@H](NC(=O)[C@H](CCCNC(=N)N)NC(=O)[C@H](CCCNC(=N)N)NC(=O)[C@H](CCC(N)=O)NC(=O)[C@H](CCCNC(=N)N)NC(=O)[C@H](CCCNC(=N)N)NC(=O)[C@H](CCCCN)NC(=O)[C@H](CCCCN)NC(=O)[C@H](CCCNC(=N)N)NC(=O)CNC(=O)[C@H](Cc1ccc(O)cc1)NC(=O)[C@H](Cc1ccccc1)NC(=O)[C@H](Cc1ccccc1)NC(=O)[C@H](Cc1ccccc1)NC(=O)Cc1ccc2ccccc2c1)C(=O)O |  | C57BL/6 mice | intraperitoneal, 10 mg/kg, 0.5 h | direction not given | health score | 5 |
| CSCC[C@H](NC(=O)[C@H](CCCNC(=N)N)NC(=O)[C@H](CCCNC(=N)N)NC(=O)[C@H](CCCCN)NC(=O)[C@H](C)NC(=O)[C@H](CCCNC(=N)N)NC(=O)CNC(=O)[C@@H](N)[C@@H](C)O)C(=O)N[C@@H](CCC(N)=O)C(=O)N[C@@H](Cc1ccc(O)cc1)C(=O)N[C@@H](CC(N)=O)C(=O)N[C@@H](CCCNC(=N)N)C(=O)N[C@@H](CCCNC(=N)N)C(N)=O | chemical stability, HPLC | human, serum | 100 µM, 30 min, pH 7.4 |  | compound remaining | 87.5% |
| C#Cc1c(F)ccc2cc(O)cc(-c3ncc4c(N5CC6CCC(C5)N6C(=O)OC(C)OC(=O)C(CCCC)CCCCCC)nc(OC[C@@]56CCCN5C[C@H](F)C6)nc4c3F)c12 (stereo partly shown) | item: prodrug | mouse whole blood | 1 µM |  | t1/2 | 0.825 h |
| CSCC[C@H](NC(=O)[C@@H](NC(=O)[C@H](CC(C)C)NC(=O)[C@@H](NC(=O)[C@H](Cc1c[nH]cn1)NC(=O)CCCCCNC(=O)[C@H](CCCNC(=N)N)NC(=O)[C@H](CCCNC(=N)N)NC(=O)[C@H](CCCNC(=N)N)NC(=O)[C@H](CCC(N)=O)NC(=O)[C@H](CCCNC(=N)N)NC(=O)[C@H](CCCNC(=N)N)NC(=O)[C@H](CCCCN)NC(=O)[C@H](CCCCN)NC(=O)[C@H](CCCNC(=N)N)NC(=O)CNC(=O)[C@@H](N)Cc1ccc(O)cc1)C(C)C)C(C)C)C(=O)N[C@@H](CS)C(=O)N[C@@H](C)C(=O)N[C@H](C(N)=O)[C@@H](C)O |  | C57BL/6J mice | Alzet osmotic pump, 3 mg/kg, 8 weeks |  | blood urea nitrogen | 29 mg/dL and 26 mg/dL and 25 mg/dL |
| C=CCN1CCC23c4c5ccc(OC(=O)c6ccccc6)c4OC2C(=O)CCC3(O)C1C5 (stereo not shown) |  | rat plasma | 1 h, no inhibitor |  | remaining compound | 0% |
| CC(C)(CCCC/C=C/CCCCCC(C)(C)C(=O)O)C(=O)O |  | beagle dog, both sexes | oral, dose not given, 3 h |  | plasma concentration | 17.7 µg/mL |
| CN1Cc2cc(Cl)ccc2-n2c(nnc2C2CCN(c3cccc([18F])n3)CC2)C1 |  | C57BL/6 mouse male, thymus | intravenous, 3.7 MBq, 30 min |  | tissue uptake | 7.23 ± 3.13 %ID/g |
| CC(C)[C@@H]1NC(=O)CNC(=O)[C@H](CC(N)=O)NC(=O)[C@H](CCCNC(=N)N)NC(=O)[C@H](Cc2ccc(O)cc2)NC(=O)[C@H](C(C)C)NC(=O)[C@@H](NC(=O)[C@@H](NC(=O)[C@H](CC(N)=O)NC(=O)[C@H](Cc2c[nH]c3ccccc23)NC(=O)[C@H](C)NC(=O)[C@H](Cc2ccccc2)NC(=O)CNC(=O)[C@H](CCCCN)NC(=O)[C@H](Cc2ccccc2)NC(=O)[C@H](Cc2ccccc2)NC(=O)[C@H](CCCCN)NC(=O)OCC2c3ccccc3-c3ccccc32)C(C)C)CSSC[C@@H](C(=O)N[C@@H](Cc2c[nH]cn2)C(=O)N[C@@H](CCCNC(=N)N)C(=O)N[C@@H](CCCNC(=N)N)C(=O)N[C@@H](C)C(=O)N[C@@H](CC(N)=O)C(N)=O)NC(=O)[C@H](C(C)C)NC(=O)[C@H](CCCNC(=N)N)NC1=O |  | ICR mice, blood | intraperitoneal, 5 mg/kg, day 5 |  | eosinophils | 2.45 ± 0.22% |

Repeated from above:
| SMILES | assay | system | conditions | how to read | quantity | result |
| --- | --- | --- | --- | --- | --- | --- |
| CC[C@H](C)[C@H](NC(=O)[C@H](C)NC(=O)[C@H](CCCCN)NC(=O)[C@H](CCCCN)NC(=O)[C@@H](N)CCCNC(=N)N)C(=O)N[C@@H](CCCCN)C(=O)N[C@@H](CC(C)C)C(=O)N[C@H](C(=O)N[C@@H](CCCCN)C(=O)N[C@@H](CCCCN)C(=O)N[C@@H](CC(C)C)C(=O)N[C@H](C(=O)N[C@@H](CCCCN)C(=O)N[C@@H](CCCCN)C(=O)N[C@@H](CC(C)C)C(=O)N[C@@H](CCCCN)C(=O)N[C@@H](CCCCN)C(=O)N[C@@H](C)C(=O)N[C@@H](CC(C)C)C(=O)N[C@@H](CCCCN)C(=O)O)C(C)C)C(C)C |  | human red blood cells | 8 mg/L, 1 h, mean of replicates |  | hemolysis | 1.68% |
| C=CCN1CCC23c4c5ccc(OC(=O)c6ccccc6)c4OC2C(=O)CCC3(O)C1C5 (stereo not shown) |  | rat plasma | 1 h, no inhibitor |  | remaining compound | 0% |
